Experimental data of several laboratories.
Each numbered part is a random draw from the data of one study; scales do not carry over between parts.

Series 1 — technique: DNA-protein interaction ELISA; form: double-stranded DNA, one strand shown; sample: in vitro, bacterial lysate; concentration: not given; setting: whole dsDNA probe, crude lysate protein; reference: highest signal in screen; reading: higher = stronger binding
Target: Probable WRKY transcription factor 11, DNA-binding domain (WRKY11, Arabidopsis thaliana, UniProt Q9SV15, residues 228-325)
Target sequence (chain): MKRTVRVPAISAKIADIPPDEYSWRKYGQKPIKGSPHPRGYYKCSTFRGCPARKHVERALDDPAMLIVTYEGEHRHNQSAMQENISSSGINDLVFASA
| Sequence | relative absorbance |
| --- | --- |
| AAAAAATTTTGTGGTGTTTCGCCACCAAAA | 19.6 % of maximum |
| AAAAAACAACTTGGAGGATTTACAGCAAAA | 18.2 % of maximum |
| AAAAAATGTCTAGACTCGGACATTCGAAAA | 14.4 % of maximum |
| AAAAAAACCGATTACCATTTTTACTGAAAA | 17 % of maximum |

Series 2 — technique: protein-binding microarray; form: double-stranded DNA, one strand shown; sample: in vitro; concentration: 0.8 µM; setting: whole 60-bp probe, no competitor; reading: higher = stronger binding; shared flanks, not repeated: … GTCTTGATTCGCTTGACGCTGCTG
Target: Centromere-binding protein 1, full length, N-terminal tag (CBF1, Saccharomyces cerevisiae, UniProt P17106, residues 1-351)
Sequence of UniProt P17106 (whole entry, looked up): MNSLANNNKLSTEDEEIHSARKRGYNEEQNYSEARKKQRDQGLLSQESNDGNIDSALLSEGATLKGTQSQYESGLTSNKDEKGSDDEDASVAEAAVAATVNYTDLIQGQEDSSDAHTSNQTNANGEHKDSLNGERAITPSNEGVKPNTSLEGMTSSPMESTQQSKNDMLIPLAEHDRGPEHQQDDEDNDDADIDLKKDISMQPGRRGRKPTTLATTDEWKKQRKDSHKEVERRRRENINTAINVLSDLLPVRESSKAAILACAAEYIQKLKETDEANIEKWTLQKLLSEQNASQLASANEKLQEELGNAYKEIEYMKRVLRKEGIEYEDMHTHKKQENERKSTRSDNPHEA
| Sequence | fluorescence intensity |
| --- | --- |
| CCTAACTACTATACAGGTGCGTGATAGCTTCGTACA | 693 a.u. |
| CTATAGCCACGATAAGGCGTGGTGCTGCTTCATTTC | 499 a.u. |
| GAAGAAAAGCGAAAACAGGTGATAATAATGATGTAG | 716 a.u. |
| CTAATACAGGTTGGTTAGGTGACGTTGGAGAAATTC | 508 a.u. |
| GAACTCATTGTAAAACACGCGGACTGCTTCAAATAG | 561 a.u. |

Series 3 — technique: universal PBM; form: double-stranded DNA, one strand shown; sample: in vitro; concentration: not given; reading: higher = stronger binding
Target: Sal-like protein 4, full length isoform B (SALL4, Homo sapiens, UniProt Q9UJQ4-2, residues 1-616)
Setting: 8-mer, flanks averaged, mean of replicates
Target sequence (chain): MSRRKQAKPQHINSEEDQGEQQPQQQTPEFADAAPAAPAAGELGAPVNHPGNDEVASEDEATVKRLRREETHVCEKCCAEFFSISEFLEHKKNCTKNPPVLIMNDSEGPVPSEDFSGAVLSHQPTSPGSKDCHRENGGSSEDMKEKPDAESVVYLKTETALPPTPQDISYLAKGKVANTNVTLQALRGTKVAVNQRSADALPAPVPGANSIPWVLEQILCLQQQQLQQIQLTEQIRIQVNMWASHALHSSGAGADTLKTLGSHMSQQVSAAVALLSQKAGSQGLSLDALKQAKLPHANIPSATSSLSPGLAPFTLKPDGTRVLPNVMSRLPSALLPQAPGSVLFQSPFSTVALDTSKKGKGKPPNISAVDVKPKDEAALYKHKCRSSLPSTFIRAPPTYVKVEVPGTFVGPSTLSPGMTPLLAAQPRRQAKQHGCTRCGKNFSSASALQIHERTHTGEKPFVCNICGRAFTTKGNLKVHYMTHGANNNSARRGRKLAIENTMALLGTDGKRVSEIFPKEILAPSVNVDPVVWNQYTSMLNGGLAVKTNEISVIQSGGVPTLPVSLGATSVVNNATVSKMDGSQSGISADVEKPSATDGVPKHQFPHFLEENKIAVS
| Sequence | E-score |
| --- | --- |
| ACGATACT | 0.0805 |
| CCATTCCA | -0.112 |
| GAACACGC | -0.236 |
| CCCGTCGG | -0.332 |
| GGAGTGCC | -0.32 |

Other studies, line by line
| Molecule | target | test | test system | setting | how to read | measurement | value |
| --- | --- | --- | --- | --- | --- | --- | --- |
| PhoQ, residues 284 288 289 292 302 303 ALAMYF | PhoP, residues 12 14 15 18 19 LYFRQ (Escherichia coli, UniProt P23836) | Sort-seq, item: YFP reporter | E. coli | PhoQ-PhoP variant library, added: 10 µM Mg2+ | reference: high Mg2+ state, higher = stronger signaling | fold induction | 9.57 |

For quick reference, copied from above (series 1):
| Sequence | relative absorbance |
| --- | --- |
| AAAAAATGTCTAGACTCGGACATTCGAAAA | 14.4 % of maximum |
| AAAAAAACCGATTACCATTTTTACTGAAAA | 17 % of maximum |
